Measured values gathered from unrelated publications.
Numbered parts are unrelated; each lists some results of a single study.
UniProt Q09013, sequence (whole entry, looked up): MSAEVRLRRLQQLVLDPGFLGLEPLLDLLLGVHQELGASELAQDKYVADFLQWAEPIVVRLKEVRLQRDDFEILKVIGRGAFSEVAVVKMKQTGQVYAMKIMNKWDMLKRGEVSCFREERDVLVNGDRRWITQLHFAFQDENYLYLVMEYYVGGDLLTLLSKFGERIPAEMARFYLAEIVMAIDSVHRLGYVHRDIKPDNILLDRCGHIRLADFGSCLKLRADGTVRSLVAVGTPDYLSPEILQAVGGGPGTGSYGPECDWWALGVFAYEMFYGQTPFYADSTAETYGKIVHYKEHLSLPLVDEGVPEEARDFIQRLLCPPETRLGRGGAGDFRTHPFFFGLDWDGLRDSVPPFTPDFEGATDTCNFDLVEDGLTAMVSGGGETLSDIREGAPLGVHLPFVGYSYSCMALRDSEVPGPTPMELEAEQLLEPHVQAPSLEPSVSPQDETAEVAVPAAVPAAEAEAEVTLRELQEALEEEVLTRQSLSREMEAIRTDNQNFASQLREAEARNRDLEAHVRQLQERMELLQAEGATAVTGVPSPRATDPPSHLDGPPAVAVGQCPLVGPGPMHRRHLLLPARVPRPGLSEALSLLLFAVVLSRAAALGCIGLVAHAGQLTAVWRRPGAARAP
UniProt Q9Y6R4, sequence (whole entry, looked up): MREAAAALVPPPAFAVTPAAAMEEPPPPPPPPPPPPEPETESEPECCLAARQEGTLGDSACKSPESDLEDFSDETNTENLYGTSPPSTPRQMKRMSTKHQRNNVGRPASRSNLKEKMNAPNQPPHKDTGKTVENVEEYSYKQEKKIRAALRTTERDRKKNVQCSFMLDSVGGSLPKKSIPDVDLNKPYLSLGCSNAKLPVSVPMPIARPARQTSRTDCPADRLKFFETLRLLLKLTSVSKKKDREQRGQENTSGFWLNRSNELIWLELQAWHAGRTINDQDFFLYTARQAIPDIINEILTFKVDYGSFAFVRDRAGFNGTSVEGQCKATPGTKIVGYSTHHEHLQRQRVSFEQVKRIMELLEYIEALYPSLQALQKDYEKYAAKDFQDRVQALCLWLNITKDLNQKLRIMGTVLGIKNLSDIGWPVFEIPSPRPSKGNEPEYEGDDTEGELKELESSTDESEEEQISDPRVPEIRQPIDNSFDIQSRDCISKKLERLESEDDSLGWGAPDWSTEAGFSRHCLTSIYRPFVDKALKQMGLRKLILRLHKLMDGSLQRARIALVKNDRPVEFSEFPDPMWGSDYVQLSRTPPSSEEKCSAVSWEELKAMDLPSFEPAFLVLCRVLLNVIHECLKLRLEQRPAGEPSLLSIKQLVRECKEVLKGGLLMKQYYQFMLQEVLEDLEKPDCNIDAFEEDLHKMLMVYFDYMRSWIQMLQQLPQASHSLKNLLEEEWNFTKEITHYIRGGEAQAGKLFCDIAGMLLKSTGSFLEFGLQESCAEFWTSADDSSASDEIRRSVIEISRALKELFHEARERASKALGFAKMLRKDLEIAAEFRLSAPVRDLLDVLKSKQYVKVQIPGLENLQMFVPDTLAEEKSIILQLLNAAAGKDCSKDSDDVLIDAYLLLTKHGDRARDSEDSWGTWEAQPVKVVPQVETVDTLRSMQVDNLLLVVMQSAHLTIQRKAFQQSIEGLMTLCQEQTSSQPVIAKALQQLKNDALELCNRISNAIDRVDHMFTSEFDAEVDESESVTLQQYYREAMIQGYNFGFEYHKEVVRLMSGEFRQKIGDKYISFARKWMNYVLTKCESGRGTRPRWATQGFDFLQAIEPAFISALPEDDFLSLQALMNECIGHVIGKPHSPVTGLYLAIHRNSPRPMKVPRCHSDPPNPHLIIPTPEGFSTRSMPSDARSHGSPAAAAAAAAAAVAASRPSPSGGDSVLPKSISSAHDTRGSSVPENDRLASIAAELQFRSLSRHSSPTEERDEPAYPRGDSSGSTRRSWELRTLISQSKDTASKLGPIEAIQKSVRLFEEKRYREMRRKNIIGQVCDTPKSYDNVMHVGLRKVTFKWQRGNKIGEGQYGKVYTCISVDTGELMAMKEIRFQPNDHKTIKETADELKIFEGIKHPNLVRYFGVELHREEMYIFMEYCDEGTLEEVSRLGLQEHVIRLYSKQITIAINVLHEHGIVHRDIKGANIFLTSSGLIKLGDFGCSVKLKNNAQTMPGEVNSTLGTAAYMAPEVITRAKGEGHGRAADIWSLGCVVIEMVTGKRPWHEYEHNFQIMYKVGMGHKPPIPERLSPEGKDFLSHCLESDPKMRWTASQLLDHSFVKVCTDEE
UniProt P53350, sequence (whole entry, looked up): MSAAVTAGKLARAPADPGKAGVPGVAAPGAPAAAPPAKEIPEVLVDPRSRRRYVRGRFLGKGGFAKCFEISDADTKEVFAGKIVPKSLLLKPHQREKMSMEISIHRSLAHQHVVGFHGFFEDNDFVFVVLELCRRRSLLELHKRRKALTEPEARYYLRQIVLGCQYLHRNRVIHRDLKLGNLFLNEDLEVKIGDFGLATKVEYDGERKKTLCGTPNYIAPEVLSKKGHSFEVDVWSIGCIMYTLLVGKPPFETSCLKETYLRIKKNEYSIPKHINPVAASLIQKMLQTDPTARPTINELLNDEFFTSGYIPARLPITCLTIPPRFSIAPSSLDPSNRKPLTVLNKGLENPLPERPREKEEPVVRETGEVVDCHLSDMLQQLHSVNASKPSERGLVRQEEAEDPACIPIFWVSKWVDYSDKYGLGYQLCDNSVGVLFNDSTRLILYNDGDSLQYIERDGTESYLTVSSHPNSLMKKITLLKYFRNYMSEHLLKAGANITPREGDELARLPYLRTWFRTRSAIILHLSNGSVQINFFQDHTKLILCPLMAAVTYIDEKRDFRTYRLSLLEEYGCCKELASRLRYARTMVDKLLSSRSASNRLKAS
UniProt Q9BWU1, sequence (whole entry, looked up): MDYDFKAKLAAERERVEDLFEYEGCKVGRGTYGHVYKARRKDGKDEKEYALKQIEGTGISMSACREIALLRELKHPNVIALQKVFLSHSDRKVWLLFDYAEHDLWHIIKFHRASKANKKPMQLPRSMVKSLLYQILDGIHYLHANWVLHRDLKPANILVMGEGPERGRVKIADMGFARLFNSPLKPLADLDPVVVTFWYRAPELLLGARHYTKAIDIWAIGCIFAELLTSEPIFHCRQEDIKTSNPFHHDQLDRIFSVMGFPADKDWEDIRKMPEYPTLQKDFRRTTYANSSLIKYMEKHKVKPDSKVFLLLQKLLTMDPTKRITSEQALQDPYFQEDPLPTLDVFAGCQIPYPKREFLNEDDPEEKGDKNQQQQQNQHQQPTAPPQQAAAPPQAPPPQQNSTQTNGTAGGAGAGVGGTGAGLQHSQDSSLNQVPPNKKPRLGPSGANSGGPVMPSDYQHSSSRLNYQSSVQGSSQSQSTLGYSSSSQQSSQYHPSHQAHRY
UniProt Q14004, sequence (whole entry, looked up): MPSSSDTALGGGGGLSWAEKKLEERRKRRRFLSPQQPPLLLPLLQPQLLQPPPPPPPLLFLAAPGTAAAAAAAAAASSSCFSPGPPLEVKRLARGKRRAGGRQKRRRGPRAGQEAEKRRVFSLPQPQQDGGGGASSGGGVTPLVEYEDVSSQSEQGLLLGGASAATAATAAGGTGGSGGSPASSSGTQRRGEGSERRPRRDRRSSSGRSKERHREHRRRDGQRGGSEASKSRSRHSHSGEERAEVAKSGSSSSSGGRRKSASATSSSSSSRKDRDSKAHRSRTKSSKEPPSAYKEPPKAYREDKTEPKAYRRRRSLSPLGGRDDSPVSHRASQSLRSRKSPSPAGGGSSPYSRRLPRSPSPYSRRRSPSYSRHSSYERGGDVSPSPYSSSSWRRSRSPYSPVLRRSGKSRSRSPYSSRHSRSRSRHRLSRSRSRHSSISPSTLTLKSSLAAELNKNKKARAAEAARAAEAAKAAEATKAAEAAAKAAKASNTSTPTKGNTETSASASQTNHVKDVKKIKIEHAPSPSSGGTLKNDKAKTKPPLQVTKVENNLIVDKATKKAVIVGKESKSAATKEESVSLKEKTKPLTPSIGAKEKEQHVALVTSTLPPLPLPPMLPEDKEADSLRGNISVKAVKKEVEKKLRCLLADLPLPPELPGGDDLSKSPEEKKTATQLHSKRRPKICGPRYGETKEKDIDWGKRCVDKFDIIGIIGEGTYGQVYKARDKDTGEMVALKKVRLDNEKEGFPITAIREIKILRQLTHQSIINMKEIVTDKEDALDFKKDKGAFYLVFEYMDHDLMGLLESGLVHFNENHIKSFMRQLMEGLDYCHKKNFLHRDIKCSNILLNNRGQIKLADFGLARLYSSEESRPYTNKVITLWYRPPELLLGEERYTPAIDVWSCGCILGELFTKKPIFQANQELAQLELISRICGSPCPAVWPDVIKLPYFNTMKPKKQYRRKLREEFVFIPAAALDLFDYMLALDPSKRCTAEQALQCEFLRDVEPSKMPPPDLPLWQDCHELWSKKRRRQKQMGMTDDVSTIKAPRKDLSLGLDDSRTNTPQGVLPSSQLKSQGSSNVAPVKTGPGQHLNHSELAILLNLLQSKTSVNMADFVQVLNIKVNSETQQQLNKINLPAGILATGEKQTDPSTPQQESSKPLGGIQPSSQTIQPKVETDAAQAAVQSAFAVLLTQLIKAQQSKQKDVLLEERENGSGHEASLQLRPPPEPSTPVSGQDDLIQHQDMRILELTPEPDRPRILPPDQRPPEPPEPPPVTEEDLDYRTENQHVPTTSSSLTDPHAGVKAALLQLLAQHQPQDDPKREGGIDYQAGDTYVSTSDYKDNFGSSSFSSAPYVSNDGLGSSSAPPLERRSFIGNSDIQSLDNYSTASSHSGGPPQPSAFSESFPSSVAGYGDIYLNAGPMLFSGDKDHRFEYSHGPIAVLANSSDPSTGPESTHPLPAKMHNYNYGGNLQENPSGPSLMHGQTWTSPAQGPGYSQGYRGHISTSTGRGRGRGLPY

Series 1
Target: Inhibitor of nuclear factor kappa-B kinase subunit beta (IKBKB, Homo sapiens, UniProt O14920)
Effect on: enzyme activity
Mode: inhibitor
Concentration: 0.5 µM
Reference: control
Endpoint: remaining activity
Construct (O14920 1-756): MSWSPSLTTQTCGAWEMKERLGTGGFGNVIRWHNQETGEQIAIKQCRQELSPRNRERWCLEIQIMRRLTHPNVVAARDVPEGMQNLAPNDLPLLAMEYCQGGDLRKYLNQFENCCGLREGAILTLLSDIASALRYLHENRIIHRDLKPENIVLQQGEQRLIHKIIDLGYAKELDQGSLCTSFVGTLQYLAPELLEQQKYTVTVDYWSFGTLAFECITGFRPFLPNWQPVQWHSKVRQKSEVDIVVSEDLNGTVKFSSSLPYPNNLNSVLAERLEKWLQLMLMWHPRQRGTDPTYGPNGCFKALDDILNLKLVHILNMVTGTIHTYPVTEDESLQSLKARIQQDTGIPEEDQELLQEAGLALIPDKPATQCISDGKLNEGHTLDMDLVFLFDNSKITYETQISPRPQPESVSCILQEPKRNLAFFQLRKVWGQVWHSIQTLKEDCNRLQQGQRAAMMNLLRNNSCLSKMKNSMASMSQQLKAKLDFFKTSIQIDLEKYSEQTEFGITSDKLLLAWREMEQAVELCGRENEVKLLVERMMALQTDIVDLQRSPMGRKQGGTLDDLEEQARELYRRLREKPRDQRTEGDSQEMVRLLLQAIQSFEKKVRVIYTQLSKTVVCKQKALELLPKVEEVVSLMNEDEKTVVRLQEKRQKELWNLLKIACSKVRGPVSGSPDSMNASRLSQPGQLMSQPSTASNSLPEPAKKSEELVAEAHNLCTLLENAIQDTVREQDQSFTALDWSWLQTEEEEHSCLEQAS
Cc1cc2ncc(-c3ccccc3)nc2cc1C: 101%
Nc1cccc(-c2cc3c(Oc4cccc(O)c4)ncnc3[nH]2)c1: 90.8%
CCN(CC)C(=O)c1ccc(Nc2nc(OCC3CCCCC3)c3[nH]cnc3n2)cc1: 97.3%
COc1cc2ncnc(Nc3cccc(Cl)c3)c2cc1OC: 102%
COc1cc2c(cc1OC)-c1[nH]nc(Nc3cccc(F)c3)c1C2: 98.2%
c1ccc(-c2[nH]ncc2-c2ccnc3ccccc23)nc1: 105%
CCOc1nc(NC(=O)Cc2cc(OC)ccc2OC)cc(N)c1C#N: 102%
O=C(Nc1cccc(Nc2nccc(Nc3cccc(C(F)(F)F)c3)n2)c1)C1CC1: 97.9%
N#C/C(=C\c1ccc(O)c(O)c1)C(=O)NCc1ccccc1: 103%
COc1cc2ncnc(Nc3ccc(O)c(Br)c3)c2cc1OC: 88%
O=C(NC(NC(=S)Nc1ccc(F)c([N+](=O)[O-])c1)C(Cl)(Cl)Cl)C(c1ccccc1)c1ccccc1 (stereo not shown): 102%
N#Cc1c(NC(=O)c2cccc3ccccc23)sc2c1CCCC2: 97%
O=C1C(Cl)=C(N2C(=O)CCC2=O)C(=O)c2ccccc21: 101%
CN([C@@H](Cc1ccc(OS(=O)(=O)c2cccc3cnccc23)cc1)C(=O)N1CCN(c2ccccc2)CC1)S(=O)(=O)c1cccc2cnccc12: 96.7%
CCN(CC)CCNC(=O)c1c(C)[nH]c(/C=C2\C(=O)Nc3ccc(F)cc32)c1C: 81%
C[C@@H]1CCN(C(=O)CC#N)C[C@@H]1N(C)c1ncnc2[nH]ccc12: 88.2%
Cn1nc2c3c(cccc31)C(=O)c1ccccc1-2: 103%
Cc1cn(-c2cc(NC(=O)c3ccc(C)c(Nc4nccc(-c5cccnc5)n4)c3)cc(C(F)(F)F)c2)cn1: 82.8%
CN(C)C[C@H]1CCn2c(c(C3=C(c4cn(C)c5ccccc45)C(=O)NC3=O)c3ccccc32)C1: 105%
c1ccc(-c2cnc(Nc3ccc(OCCN4CCCC4)cc3)s2)cc1: 98.1%

Series 2
Host: mouse
Medium: microsomes or S9
Concentration: 2 µM
Time: 0.5 h
Endpoint: remaining compound
Cn1c(=O)n(-c2ncccc2C#N)c2ccccc21: 43.4%
COc1ccc(-c2csc(/C(C#N)=C3\C=CC=CN3C)n2)cc1: 0.677%
Cc1ccc2c(c1)ncc1c(-c3ccccc3)nn(-c3cccc(C)c3C)c12: 80.1%
CCOc1cc(=O)n2c(c1C(=O)NCc1ccc3c(c1)OCO3)CCCC2: 58.2%
CC(C)N(C(=O)COc1nc(Cl)cc(Cl)n1)c1ccccc1: 14.7%
CCc1cc2c3c([nH]c2cc1S(=O)(=O)NCCCN1CCOCC1)CC(C)(C)CC3=O: 63.9%
CC(C)(C)C1CCc2onc(C(=O)NCCCOc3ccccc3F)c2C1 (stereo not shown): 0.715%

Series 3
SMILES: COc1cc(-c2cn(C3CCc4ccccc4N(CC(F)(F)F)C3=O)nn2)ccc1-n1ccc(C)n1 (stereo not shown)
Concentration: 1 µM
Endpoint: remaining binding
CDK13 (Homo sapiens, UniProt Q14004); cell-free assay, competition with immobilised ligand: 100%
STK10 (Homo sapiens, UniProt O94804); cell-free assay, competition with immobilised ligand: 100%
DMPK (Homo sapiens, UniProt Q09013); cell-free assay, competition with immobilised ligand: 96%
PLK1 (Homo sapiens, UniProt P53350); cell-free assay, competition with immobilised ligand: 84%
MAP3K1 (Homo sapiens, UniProt Q13233); cell-free assay, competition with immobilised ligand: 72%
Ribosomal protein S6 kinase alpha-2, N-terminal kinase domain (RPS6KA2, Homo sapiens, UniProt Q15349); cell-free assay, competition with immobilised ligand: 100%
MET (Homo sapiens, UniProt P08581, M1250T); cell-free assay, competition with immobilised ligand: 100%
MAP3K4 (Homo sapiens, UniProt Q9Y6R4); cell-free assay, competition with immobilised ligand: 85%
Non-receptor tyrosine-protein kinase TYK2, JH1 (TYK2, Homo sapiens, UniProt P29597); cell-free assay, competition with immobilised ligand: 100%
SRPK1 (Homo sapiens, UniProt Q96SB4); cell-free assay, competition with immobilised ligand: 100%
CDK19 (Homo sapiens, UniProt Q9BWU1); competition binding: 72%
FLT3 (Homo sapiens, UniProt P36888, D835H); cell-free assay, competition with immobilised ligand: 100%

Series 4
Cell line: mouse MPNST tumor cells
Technique: high-content nuclear imaging
Measured: cell number
Concentration: 10 µM
Time: 12 h
Setting: mean of 2 replicates
Reference: plate mean
Direction: higher = more cells
Endpoint: nuclei count
Cc1cc(=O)oc2cc(O)ccc12: 1.5 z-score
CCOC(=O)C1=C(C)NC(C)=C(C(=O)OCC)C1c1ccccc1/C=C/C(=O)OC(C)(C)C: -0.838 z-score
CCOC(=O)C1=C(N)Oc2cc(O)ccc2C1c1cccnc1 (stereo not shown): 2.65 z-score
C=CCOc1ccccc1OCC(O)CNC(C)C (stereo not shown): 1.04 z-score

Some of these lines once more (series 1):
COc1cc2ncnc(Nc3ccc(O)c(Br)c3)c2cc1OC: 88%
Cn1nc2c3c(cccc31)C(=O)c1ccccc1-2: 103%
CCOc1nc(NC(=O)Cc2cc(OC)ccc2OC)cc(N)c1C#N: 102%
N#Cc1c(NC(=O)c2cccc3ccccc23)sc2c1CCCC2: 97%
